# Assay results of several laboratories.
# Compare with care: the assays were run in different laboratories. ± gives the spread as reported.
# Target: Cytochrome P450 2C19 (CYP2C19, Homo sapiens, UniProt P33261)
# UniProt P33261, sequence (whole entry, looked up): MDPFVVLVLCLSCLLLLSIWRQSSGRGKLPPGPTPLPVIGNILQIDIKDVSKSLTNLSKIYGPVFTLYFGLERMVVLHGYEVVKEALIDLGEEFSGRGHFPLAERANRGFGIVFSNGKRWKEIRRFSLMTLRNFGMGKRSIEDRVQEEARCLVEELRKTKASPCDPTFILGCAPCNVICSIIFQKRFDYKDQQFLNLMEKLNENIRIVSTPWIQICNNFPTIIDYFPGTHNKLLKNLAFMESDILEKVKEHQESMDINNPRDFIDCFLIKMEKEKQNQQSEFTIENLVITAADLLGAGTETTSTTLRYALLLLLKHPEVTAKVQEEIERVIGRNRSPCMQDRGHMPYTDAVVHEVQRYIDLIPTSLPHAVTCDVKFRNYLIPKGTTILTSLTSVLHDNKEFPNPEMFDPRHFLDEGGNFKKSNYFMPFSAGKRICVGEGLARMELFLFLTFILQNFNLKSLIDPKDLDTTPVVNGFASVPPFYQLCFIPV
SMILES,assay,test system,setting,how to read,quantity,result
COc1cc(O)c(CC=C(C)C)c2c1C(=O)CC(c1ccc(O)cc1)O2 (stereo not drawn),"enzyme activity, inhibitor",human liver microsomes,"1 µM, pH 7.4, with: (S)-mephenytoin",,inhibition,51 ± 8.6%
COc1ccc2[nH]c([S+]([O-])Cc3ncc(C)c(OC)c3C)nc2c1 (stereo not drawn),item: 5-hydroxyomeprazole,"human healthy subjects, plasma","oral, dose not given, alone, geometric mean, with: midazolam",,AUC(0-12 h),335 ng·h/mL
OCc1ccc(-c2nn(Cc3ccccc3)c3ccccc23)o1,substrate,recombinant human enzyme,,,half-life,3.6 min
CC(C)=CCc1c(O)cc2c(c1O)C(=O)C[C@@H](c1ccc(O)cc1)O2,,,"10 µM, pH 7.4",,inhibition,14.3 ± 0.1%
COc1ccc2nc([S+]([O-])Cc3ncc(CO)c(OC)c3C)[nH]c2c1 (stereo not drawn),,"human healthy subjects, plasma","oral, dose not given, alone, geometric mean, with: midazolam",,AUC(0-12 h),325 ng·h/mL
CN(C(=O)n1cnc(-c2ccc[n+]([O-])c2)c1)C1CCCCC1,"enzyme activity, inhibitor",pooled human liver microsomes,0.1 to 30 µg/mL,,inhibition,no effect
N#C[C@H](C[C@@H]1CCCNC1=O)NC(=O)[C@H](CC1CC1)NC(=O)c1cc2cccc(Cl)c2[nH]1,NADPH metabolic stability,,"2 µM, pH 7.4, 37 °C, 100 pmol/mL enzyme",,half-life,10.5 min
COc1cc(O)c(CC=C(C)C)c(O)c1C(=O)/C=C/c1ccc(O)cc1,"enzyme activity, inhibitor",human liver microsomes,"1 µM, pH 7.4, with: (S)-mephenytoin",,inhibition,< 10%
COc1ccc2[nH]c([S+]([O-])Cc3ncc(C)c(OC)c3C)nc2c1 (stereo not drawn),,"human, plasma","oral, 20 mg, Day 1, with: single dose encorafenib and binimetinib",reference: Day -7,geometric LS mean ratio of Cmax,1.32
Cc1cccc(F)c1N1CCC(N2Cc3cn(CC(C)(F)F)nc3N(Cc3ccccc3C(F)(F)F)C2=O)CC1,"enzyme activity, inhibitor, Ki based, item: (S)-mephenytoin 4'-hydroxylation",,,reference: CYP2C8 Ki over target Ki,selectivity ratio,1.6 fold
C=CC(=O)Nc1cc(Nc2nccc(-c3cn(C)c4ccccc34)n2)c(OCC(F)(F)F)nc1N(C)CCNC,substrate depletion,recombinant human CYP,1 µM,,intrinsic clearance,0.36 µL/min/pmol
C=CC(=O)N(C)CCOc1c(N)ncnc1-c1cc(F)cc(NC(=O)c2ccc(C3CC3)cc2F)c1C,recombinant enzyme incubation,,,,fraction unbound in microsomal incubation,0.94
COc1ccc2nc([S+]([O-])Cc3ncc(CO)c(OC)c3C)[nH]c2c1 (stereo not drawn),substrate,"human, plasma","oral, 20 mg, day 1, cocktail with binimetinib and encorafenib",,Cmax,90.4 ng/mL
CC(C)=CCc1c(O)cc(O)c2c1O[C@H](c1ccc(O)cc1)CC2=O,"enzyme activity, inhibitor",,"10 µM, pH 7.4",,inhibition,92.8 ± 5.5%
C[C@@H](c1ccc2nccn2c1)n1nnc2ncc(-c3cnn(C)c3)nc21,,human liver microsomes,"10 and 50 µM, 30 min preincubation, pH 7.4, with: ± NADPH",,time-dependent inhibition,< 20%

# Repeated from above:
SMILES,assay,test system,setting,how to read,quantity,result
C=CC(=O)N(C)CCOc1c(N)ncnc1-c1cc(F)cc(NC(=O)c2ccc(C3CC3)cc2F)c1C,recombinant enzyme incubation,,,,fraction unbound in microsomal incubation,0.94
COc1ccc2nc([S+]([O-])Cc3ncc(CO)c(OC)c3C)[nH]c2c1 (stereo not drawn),substrate,"human, plasma","oral, 20 mg, day 1, cocktail with binimetinib and encorafenib",,Cmax,90.4 ng/mL
